Results collected from several papers.
Compare with care: the assays were run in different laboratories. “And” joins repeats or separate records; there may be more than shown. ± marks the error that the study gave.

Structure (SMILES)	cell line	assay	system	conditions	scale	quantity	value
CC(C)=CCC[C@](C)(O)[C@H]1CC[C@]2(C)[C@@H]1[C@H](O)C[C@@H]1[C@@]3(C)CC[C@H](O)C(C)(C)[C@@H]3[C@@H](O[C@@H]3O[C@H](CO)[C@@H](O)[C@H](O)[C@H]3O)C[C@]12C	HepG2	cell viability, CCK-8	–	25 µM	higher = more viable cells	optical density	1.08 a.u. and 1.07 a.u. and 1.04 a.u. and 1.01 a.u. and 0.785 a.u. and 0.992 a.u.
CC[C@H](C)[C@H](NC(=O)[C@H](CC(C)C)NC(=O)[C@H](C)NC(=O)[C@H](CC(C)C)NC(=O)[C@@H](N)Cc1ccccc1)C(=O)N[C@@H](CC(C)C)C(=O)N[C@@H](CCCNC(=N)N)C(=O)N[C@@H](CCCCN)C(=O)N[C@H](C(=O)N[C@H](C(=O)N[C@H](C(=O)N[C@@H](C)C(=O)N[C@@H](CC(C)C)C(=O)N[C@@H](CS)C(N)=O)[C@@H](C)O)C(C)C)[C@@H](C)CC	human red blood cells	–	–	pH 5.5	reference: Triton X-100	EC50	38 µM
C[C@]12CC[C@H](O)C[C@H]1CC[C@@H]1[C@@H]2C[C@@H](O)[C@]2(C)[C@@H](C3=CC(=O)OC3)CC[C@]12O	human iPSC-derived cardiomyocytes	MyBP-C/MYH ratio, plate-normalised SD score	–	concentration not given, primary screen	direction not given	activity score	6.8
Cc1ccc(S(=O)(=O)Oc2ccc(NC(=O)c3cnccn3)cc2)cc1	P2X7R-transfected MCF7	propidium iodide flow cytometry	–	5 µM, 18 h, together with: Bz-ATP	reference: control	dead cells	19%
COc1c(C)c2c(c(O)c1C/C=C(\C)CCC(=O)O)C(=O)OC2	blood cancer cell lines	cell proliferation	–	average over lines	–	IC50	0.339 µM
Cn1nccc1Nc1nccc(-c2ccn([C@H](CO)c3ccc(Cl)c(F)c3)c(=O)c2)n1	HCT116	IncuCyte	–	concentration not given, 16 (unit not given)	–	PI-positive cells	2.75 count and 4.42 count and 4 count
Cc1cnc2ccc3c(nc(N)n3C)c2n1	BALB/c 3T3	–	–	0.5 µM	reference: solvent control	relative colony forming efficiency	102 ± 6%
O=c1cc(-c2ccc(O)cc2)oc2cc(O)cc(O)c12	induced SH-SY5Y Aβ-GFP cells	–	–	5 µM	–	neurite process number	3.5 to 3.6
COc1c(CCC[P+](c2ccccc2)(c2ccccc2)c2ccccc2)cc2c(c1OC)OCO2.[I-]	LOX IMVI	SRB	–	–	–	Log10TGI	-4.98 log M
O=C(N/N=C/c1ccc([N+](=O)[O-])o1)c1cc([N+](=O)[O-])cc([N+](=O)[O-])c1O	human iPSC-derived cardiomyocytes	MyBP-C/MYH ratio, plate-normalised SD score	–	concentration not given, primary screen	direction not given	activity score	3.6
O=S(=O)(c1ccc(O)cc1)c1ccc(O)cc1	HepG2 spheroids	Hoechst flow cytometry	–	10 µM, 96 h	–	G2 phase cells	18.4 ± 4.21%
COc1cc(CCC[P+](c2ccccc2)(c2ccccc2)c2ccccc2)c(OC)c2c1OCO2.[I-]	U-251	SRB	–	–	–	TGI	-4.76 log M
CN[C@@H]1C[C@H]2O[C@@](C)([C@@H]1OC)n1c3ccccc3c3c4c(c5c6ccccc6n2c5c31)C(=O)NC4	iCell Cardiomyocytes (hiPSC-derived)	cellular impedance	–	concentration not given, 24 h	reference: control	cell index	16.1%
CS(=O)(=O)c1ccc(-c2nnc(/C=C/c3nnc(-c4ccc(C#N)cc4)o3)n2-c2ccccc2Cl)nc1	Apc Q1405X mutant organoids	organoid viability, AlamarBlue	mouse small intestinal organoids	6 days, Tnks genotype Tnks+/+	–	Hill slope	-2.76
CC(C)N1CCC(NC2CCN(c3cccc(-c4cc5cc(F)ccc5[nH]4)c3)CC2)CC1	NCI-H322M	–	–	–	–	GI50	1.63 µM
CN(C)NC(=O)CCC(=O)O	HBL-1	–	–	1 µM, 120 h	–	viability	104%

Excerpt of the above:
Structure (SMILES)	cell line	assay	system	conditions	scale	quantity	value
COc1c(C)c2c(c(O)c1C/C=C(\C)CCC(=O)O)C(=O)OC2	blood cancer cell lines	cell proliferation	–	average over lines	–	IC50	0.339 µM
